Assay results from different studies.
Every numbered part comes from another study and shows a few of its results, in no order. Positions count from the first letter of the parent shown.
Chain of UniProt O75914 (whole entry, looked up): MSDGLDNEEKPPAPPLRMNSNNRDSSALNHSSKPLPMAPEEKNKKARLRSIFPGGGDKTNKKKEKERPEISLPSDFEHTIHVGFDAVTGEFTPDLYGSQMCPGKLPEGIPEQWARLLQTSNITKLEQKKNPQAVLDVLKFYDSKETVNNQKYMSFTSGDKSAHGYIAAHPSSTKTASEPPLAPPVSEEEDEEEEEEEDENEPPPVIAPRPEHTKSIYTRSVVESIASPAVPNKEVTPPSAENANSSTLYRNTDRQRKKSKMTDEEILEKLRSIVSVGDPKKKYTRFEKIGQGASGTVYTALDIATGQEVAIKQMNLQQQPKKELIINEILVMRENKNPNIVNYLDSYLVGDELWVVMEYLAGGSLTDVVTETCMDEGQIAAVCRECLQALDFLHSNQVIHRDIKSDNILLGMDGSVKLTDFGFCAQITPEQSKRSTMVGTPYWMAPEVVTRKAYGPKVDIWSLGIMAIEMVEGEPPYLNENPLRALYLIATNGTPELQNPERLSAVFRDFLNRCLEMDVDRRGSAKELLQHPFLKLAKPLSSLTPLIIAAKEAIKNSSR

Sample 1
Target: inorganic phosphate, free oxyanion
Technique: microfluidic competitive inhibition
Matrix: in vitro, cell-free expressed
Tested at: not given
Setting: derived from inhibition constants, unchanged parent 615000 nM
Direction: lower = stronger binding
Parent: PafA, mature enzyme, eGFP fusion (Elizabethkingia meningoseptica, UniProt Q9KJX5); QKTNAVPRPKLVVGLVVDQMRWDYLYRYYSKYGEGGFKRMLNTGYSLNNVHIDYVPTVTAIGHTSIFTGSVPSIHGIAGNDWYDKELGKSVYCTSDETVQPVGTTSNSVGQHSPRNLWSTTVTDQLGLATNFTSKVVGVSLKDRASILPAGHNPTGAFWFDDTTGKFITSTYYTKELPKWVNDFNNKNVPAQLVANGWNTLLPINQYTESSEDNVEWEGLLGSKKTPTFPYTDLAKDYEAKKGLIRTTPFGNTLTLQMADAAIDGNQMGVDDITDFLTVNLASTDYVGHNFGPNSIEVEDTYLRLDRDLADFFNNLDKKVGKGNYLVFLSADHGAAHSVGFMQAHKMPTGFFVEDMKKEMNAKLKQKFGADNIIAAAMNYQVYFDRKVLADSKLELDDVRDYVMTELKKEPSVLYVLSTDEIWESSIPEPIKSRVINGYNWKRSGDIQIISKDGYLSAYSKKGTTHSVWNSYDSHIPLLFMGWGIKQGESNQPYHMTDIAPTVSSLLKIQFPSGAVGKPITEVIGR
Substitution | phosphate dissociation constant [µM]
Y32G | 566
K387G | 578
V58A | 614
A262V | 533
D398V | 672
F160V | 415
K518V | 589
I449G | 642

Sample 2
Target: CCNF, cyclin fold, Cln2 fusion (human)
Technique: yeast growth competition, sequencing
Matrix: yeast
Setting: strong parent motif
Relative to: not given
Direction: higher = stronger binding
Parent: viral docking peptide; TSVRRALFTGGSD; partner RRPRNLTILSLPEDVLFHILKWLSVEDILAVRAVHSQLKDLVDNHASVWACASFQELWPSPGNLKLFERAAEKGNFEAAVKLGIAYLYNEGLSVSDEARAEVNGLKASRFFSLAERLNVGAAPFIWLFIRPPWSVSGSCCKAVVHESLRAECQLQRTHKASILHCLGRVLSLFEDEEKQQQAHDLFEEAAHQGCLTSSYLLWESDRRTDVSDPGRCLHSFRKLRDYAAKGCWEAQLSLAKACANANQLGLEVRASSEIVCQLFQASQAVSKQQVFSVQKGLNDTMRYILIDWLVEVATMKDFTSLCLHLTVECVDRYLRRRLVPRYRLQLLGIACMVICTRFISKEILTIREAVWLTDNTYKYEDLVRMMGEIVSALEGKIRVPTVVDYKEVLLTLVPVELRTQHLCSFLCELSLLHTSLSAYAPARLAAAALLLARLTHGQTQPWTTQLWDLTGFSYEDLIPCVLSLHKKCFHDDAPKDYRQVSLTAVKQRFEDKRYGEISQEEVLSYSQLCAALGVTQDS
Substitution | normalised enrichment score
TSVCRALFTGGSD [R4C] | 7.13
TSFRRALFTGGSD [V3F] | 4.93
TSVRRATFTGGSD [L7T] | 0.515
TSVRRALFTGGWD [S12W] | 8.72
TSVRRALFTDGSD [G10D] | 7.75
TSVRRNLFTGGSD [A6N] | 7.18
TSVRRALRTGGSD [F8R] | 0.456
TSVRRALFTMGSD [G10M] | 8.35

Mixed results
Structure (SMILES) | target | observed | mode | tested at | relative to | measurement | value
O=C1NC(=O)c2c1c1c3ccccc3n3c1c1c2c2ccccc2n1[C@H]1CC[C@@H]3O1 | PAK3 (Homo sapiens, UniProt O75914) | enzyme activity | inhibitor | 0.5 µM | control | remaining activity | 41.7%
CCOc1ccc(S(=O)(=O)Nc2ccc(Cl)cc2C#Cc2cnc(C(=O)O)cc2OC)c2ncccc12 | DRD5 (Homo sapiens, UniProt P21918) | ligand displacement | – | 10 µM | – | inhibition | 47.7%

Excerpt of the above (sample 1):
Substitution | phosphate dissociation constant [µM]
K387G | 578
K518V | 589
Y32G | 566
